Results of several laboratories.
Lines come from different studies, so protocols differ. Values joined by “and” are separate records of one study, mostly repeats; a detail may differ. Numbers after ± are the reported error.
Chain of UniProt P0A8V2 (whole entry, looked up): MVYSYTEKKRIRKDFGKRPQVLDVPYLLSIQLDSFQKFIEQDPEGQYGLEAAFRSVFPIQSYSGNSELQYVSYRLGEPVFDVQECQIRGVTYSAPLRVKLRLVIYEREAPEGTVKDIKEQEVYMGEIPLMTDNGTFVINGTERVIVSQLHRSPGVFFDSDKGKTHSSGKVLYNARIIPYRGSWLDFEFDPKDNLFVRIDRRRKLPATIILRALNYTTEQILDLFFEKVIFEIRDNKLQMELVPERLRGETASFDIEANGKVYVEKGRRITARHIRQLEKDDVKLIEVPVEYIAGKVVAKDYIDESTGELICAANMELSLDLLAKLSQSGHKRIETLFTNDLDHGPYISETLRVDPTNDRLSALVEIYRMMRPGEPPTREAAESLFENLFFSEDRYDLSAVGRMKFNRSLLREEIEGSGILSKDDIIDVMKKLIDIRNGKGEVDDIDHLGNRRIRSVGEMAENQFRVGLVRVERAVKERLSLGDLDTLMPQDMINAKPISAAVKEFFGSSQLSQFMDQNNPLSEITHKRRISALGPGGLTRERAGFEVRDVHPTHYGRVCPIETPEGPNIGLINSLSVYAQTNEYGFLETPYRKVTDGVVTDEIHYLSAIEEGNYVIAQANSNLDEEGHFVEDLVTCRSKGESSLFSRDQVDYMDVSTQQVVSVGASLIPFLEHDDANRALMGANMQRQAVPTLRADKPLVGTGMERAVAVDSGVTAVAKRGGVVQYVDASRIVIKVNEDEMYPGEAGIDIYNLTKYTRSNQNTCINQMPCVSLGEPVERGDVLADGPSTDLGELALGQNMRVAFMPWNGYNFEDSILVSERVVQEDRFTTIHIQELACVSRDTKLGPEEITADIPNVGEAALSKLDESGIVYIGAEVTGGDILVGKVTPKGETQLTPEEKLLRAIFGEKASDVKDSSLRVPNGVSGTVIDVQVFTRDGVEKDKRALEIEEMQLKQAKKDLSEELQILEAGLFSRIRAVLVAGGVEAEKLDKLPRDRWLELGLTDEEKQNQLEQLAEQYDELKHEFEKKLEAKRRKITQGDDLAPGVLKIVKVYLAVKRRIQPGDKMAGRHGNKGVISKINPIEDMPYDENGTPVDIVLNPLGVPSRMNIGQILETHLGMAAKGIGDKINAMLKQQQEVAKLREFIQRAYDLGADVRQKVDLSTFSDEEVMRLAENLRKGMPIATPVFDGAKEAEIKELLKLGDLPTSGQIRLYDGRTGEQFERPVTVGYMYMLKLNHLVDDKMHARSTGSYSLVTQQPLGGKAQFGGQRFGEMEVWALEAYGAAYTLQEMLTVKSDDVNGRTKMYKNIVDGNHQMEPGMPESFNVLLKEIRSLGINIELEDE
Chain of UniProt P0A8T7 (whole entry, looked up): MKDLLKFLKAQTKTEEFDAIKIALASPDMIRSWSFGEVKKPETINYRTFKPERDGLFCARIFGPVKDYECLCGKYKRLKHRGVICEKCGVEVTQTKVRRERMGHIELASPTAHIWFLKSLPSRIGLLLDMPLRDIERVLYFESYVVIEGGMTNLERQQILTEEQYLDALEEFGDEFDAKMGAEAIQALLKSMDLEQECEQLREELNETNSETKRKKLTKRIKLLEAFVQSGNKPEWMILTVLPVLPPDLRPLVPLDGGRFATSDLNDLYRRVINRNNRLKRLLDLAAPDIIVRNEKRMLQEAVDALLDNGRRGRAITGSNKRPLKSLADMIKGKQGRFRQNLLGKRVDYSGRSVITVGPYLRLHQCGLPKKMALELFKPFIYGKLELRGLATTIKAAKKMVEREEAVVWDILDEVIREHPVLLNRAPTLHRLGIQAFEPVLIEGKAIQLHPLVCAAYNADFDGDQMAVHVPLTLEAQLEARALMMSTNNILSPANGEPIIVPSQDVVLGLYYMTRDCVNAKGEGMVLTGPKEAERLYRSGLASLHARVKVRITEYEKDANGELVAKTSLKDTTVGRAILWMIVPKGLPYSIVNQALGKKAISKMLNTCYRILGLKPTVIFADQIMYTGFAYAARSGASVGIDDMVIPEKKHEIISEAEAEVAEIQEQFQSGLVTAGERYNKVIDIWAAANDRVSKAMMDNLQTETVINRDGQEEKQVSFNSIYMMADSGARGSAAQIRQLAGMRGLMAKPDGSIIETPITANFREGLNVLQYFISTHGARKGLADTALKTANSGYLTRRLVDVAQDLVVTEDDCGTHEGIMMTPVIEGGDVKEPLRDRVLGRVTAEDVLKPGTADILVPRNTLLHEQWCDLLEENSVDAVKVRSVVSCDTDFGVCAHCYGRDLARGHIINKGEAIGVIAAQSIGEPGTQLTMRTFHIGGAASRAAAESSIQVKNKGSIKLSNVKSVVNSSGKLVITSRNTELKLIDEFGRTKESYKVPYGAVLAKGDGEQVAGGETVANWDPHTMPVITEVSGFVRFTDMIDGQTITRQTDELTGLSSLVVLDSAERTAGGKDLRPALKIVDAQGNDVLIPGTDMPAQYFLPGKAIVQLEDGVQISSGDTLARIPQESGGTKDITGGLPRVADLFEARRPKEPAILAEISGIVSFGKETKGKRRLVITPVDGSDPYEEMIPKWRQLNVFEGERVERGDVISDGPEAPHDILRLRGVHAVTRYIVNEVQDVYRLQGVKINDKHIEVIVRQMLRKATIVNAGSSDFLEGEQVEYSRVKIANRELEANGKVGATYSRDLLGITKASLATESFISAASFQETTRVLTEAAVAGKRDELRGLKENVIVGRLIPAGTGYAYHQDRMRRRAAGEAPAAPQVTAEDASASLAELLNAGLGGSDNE

Substance	target or system	assay	test system	conditions	scale	quantity	value
Cc1cc(O)c2c(c1)C(=O)c1cc(O)cc(O)c1C2=O		viral replication	SARS-CoV-2 trVLP system	100 µM		inhibition	> 90%
mycosubtilin		calcein leakage	POPC/SM/CHOL liposomes	150 µM, fusion peptide, SARS-CoV-2		maximum fusion	11 ± 5%
ω-agatoxin IVA		cAMP signalling, high-content microscopy	DRG neurons, rat, spinal cord injury	dose not given, normalised 0 to 1, unit not given, added: forskolin, DAMGO 3	baseline: DAMGO maximum, higher = stronger inhibition	PKA-RII phosphorylation inhibition	0.739 and 0.605 and 0.77
O=c1ccn([C@@H]2O[C@](F)(CO)[C@@H](O)[C@H]2O)c(=O)[nH]1			Lassa virus Josiah strain, strain 13/N guinea pig			efficacious dose	< 0.5 mg/kg
COc1cc(O)ccc1/C=C/C(=O)c1ccc(O)cc1		viral replication	SARS-CoV-2 trVLP system	100 µM		inhibition	> 90%
CCc1c(C(=O)C(N)=O)c2c(OCC(=O)O)cccc2n1Cc1ccccc1			PB population, mouse	intravenous, 60 µg/mouse, 24 h, preincubated with venom, added: Daboia russelii venom 2.5 x LD50		survival	0%
C=CCc1ccc(O)c(-c2cc(CC=C)ccc2O)c1		viral replication	SARS-CoV-2 trVLP system	100 µM		inhibition	> 90%
CC[C@H](C)[C@H](NC(=O)[C@H](CC(C)C)NC(=O)[C@H](Cc1c[nH]c2ccccc12)NC(=O)[C@H](CCC(N)=O)NC(=O)[C@@H](NC(=O)[C@H](Cc1ccccc1)NC(=O)[C@H](C)NC(=O)[C@H](CCCCNC(=O)COCCOCCNC(=O)COCCOCCNC(=O)CC[C@H](NC(=O)CCCCCCCCCCCCCCCCCCC(=O)O)C(=O)O)NC(=O)[C@H](CCC(N)=O)NC(=O)[C@H](C)NC(=O)[C@@H](NC(=O)[C@H](CCCCN)NC(=O)[C@H](CC(=O)O)NC(=O)[C@H](CC(C)C)NC(=O)C(C)(C)NC(=O)[C@@H](NC(=O)[C@H](CO)NC(=O)[C@H](Cc1ccc(O)cc1)NC(=O)[C@H](CC(=O)O)NC(=O)[C@H](CO)NC(=O)[C@@H](NC(=O)[C@H](Cc1ccccc1)NC(=O)[C@@H](NC(=O)CNC(=O)[C@H](CCC(=O)O)NC(=O)C(C)(C)NC(=O)[C@@H](N)Cc1ccc(O)cc1)[C@@H](C)O)[C@@H](C)O)[C@@H](C)CC)[C@@H](C)CC)C(C)C)C(=O)N[C@@H](C)C(=O)NCC(=O)NCC(=O)N1CCC[C@H]1C(=O)N[C@@H](CO)C(=O)N[C@@H](CO)C(=O)NCC(=O)N[C@@H](C)C(=O)N1CCC[C@H]1C(=O)N1CCC[C@H]1C(=O)N1CCC[C@H]1C(=O)N[C@@H](CO)C(N)=O			healthy human	5.0 mg, single ascending dose		treatment-emergent adverse events	100%
CNC(=O)[C@@H](NC(=O)[C@H](CC(C)C)[C@H](O)C(=O)NO)C(C)(C)C		prothrombin time	human platelet-poor plasma	0.1 µM, added: AP venom		inhibition	5.1% and 5% and 6%
Cn1cnc(Cn2c(=O)[nH]/c(=N\c3cc4cn(C)nc4cc3Cl)n(Cc3cc(F)c(F)cc3F)c2=O)n1			human, mild renal impairment, plasma	oral, 375 mg single dose, 3 h		unbound fraction	0.0143
C[n+]1ccc(-c2cc[n+](C)cc2)cc1			abcb1 -/- FVB mice paraquat poisoning	dose not given, event flag 1		survival time	6 days and 1 days and 3 days and 5 days and 2 days and 4 days
CC(Nc1nc(N2CCNCC2C)nc2ccccc12)c1ccccc1 (stereo not drawn)	SARS-CoV-2	cytopathic effect, cell-based CPE	USA_WA1/2020	round 2, 5-point dilution		maximal response	98.4%
polymyxin B		calcein leakage	POPC/SM/CHOL liposomes	150 µM, fusion peptide, SARS-CoV-2		leakage time constant	1 ± 1 min
Nc1ncnc2c([C@@H]3N[C@H](CO)[C@@H](O)[C@H]3O)c[nH]c12	Marburg marburgvirus	virus production	HeLa, Musoke	100 µM		supernatant virus titre	0 PFU/mL
CC(=O)O[C@@H]1[C@H](N)[C@@H](OP(=O)(O)O)[C@@]2(C(=O)O)CS[C@@](O)(C(N)=O)[C@@H]1O2	DNA-directed RNA polymerase subunit beta' / DNA-directed RNA polymerase subunit beta (rpoC/rpoB, Escherichia coli, UniProt P0A8T7+P0A8V2)	binding to elongation complex, 6-MI fluorescence titration	wild-type RNAP	3′-deoxy RNA 3′-end Guanine		Kd	1300 ± 300 nM

For quick reference, copied from above:
Substance	target or system	assay	test system	conditions	scale	quantity	value
C[n+]1ccc(-c2cc[n+](C)cc2)cc1			abcb1 -/- FVB mice paraquat poisoning	dose not given, event flag 1		survival time	6 days and 1 days and 3 days and 5 days and 2 days and 4 days
